Published values gathered from unrelated publications.
A part holds a random share of what one study measured. Substitutions count along the parent as printed.
Chain of UniProt Q9HBY8 (whole entry, looked up): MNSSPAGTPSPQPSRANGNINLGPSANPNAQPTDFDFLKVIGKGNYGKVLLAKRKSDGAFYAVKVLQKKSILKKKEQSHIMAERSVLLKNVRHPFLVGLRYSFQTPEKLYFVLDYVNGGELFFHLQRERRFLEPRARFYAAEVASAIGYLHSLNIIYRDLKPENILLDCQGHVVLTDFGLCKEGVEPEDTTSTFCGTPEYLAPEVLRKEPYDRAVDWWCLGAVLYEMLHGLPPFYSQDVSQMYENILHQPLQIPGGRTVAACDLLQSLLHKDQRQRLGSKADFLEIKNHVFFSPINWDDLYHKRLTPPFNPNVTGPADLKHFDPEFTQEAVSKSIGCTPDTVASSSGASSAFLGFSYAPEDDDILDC

Study 1
Target: Histone acetyltransferase KAT6A, winged helix 1, GST fusion (KAT6A, Homo sapiens, UniProt Q92794, residues 1-85)
Technique: protein binding microarray
Form: double-stranded DNA, one strand shown
Medium: in vitro
Tested at: not given
Notes: 8-mer, flanks averaged, mean of 2 arrays, mostly near background
Reference: not given
Reading: higher = stronger binding
Construct (chain): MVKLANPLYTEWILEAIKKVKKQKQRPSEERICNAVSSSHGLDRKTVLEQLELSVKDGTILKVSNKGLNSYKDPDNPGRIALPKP
Sequence | E-score
GCCGTCAA | 0.288
ATTTTAAC | -0.136
AACAGTTA | 0.0447
CAGAGAGA | -0.26
CAACGGAC | 0.189
GGGATCGA | -0.0966
CATGCATC | 0.0323
GATCGAAC | -0.107

Study 2
Target: Interferon regulatory factor 3, full length, phosphomimetic (IRF3, Homo sapiens, UniProt Q14653, residues 1-427, S386D/S396D/S398D/S402D/T404D/S405D)
Technique: protein-binding microarray
Form: double-stranded DNA, one strand shown
Medium: in vitro
Tested at: 2540 nM top
Notes: 60-bp whole probe
With: salmon DNA 0.4 mg/ml
Reference: random background probes
Reading: higher = stronger binding
Shared flanks, not repeated: GCCTAGCAC … GTCTTGATTCGCTTGACGCTGCTG
Residues (chain): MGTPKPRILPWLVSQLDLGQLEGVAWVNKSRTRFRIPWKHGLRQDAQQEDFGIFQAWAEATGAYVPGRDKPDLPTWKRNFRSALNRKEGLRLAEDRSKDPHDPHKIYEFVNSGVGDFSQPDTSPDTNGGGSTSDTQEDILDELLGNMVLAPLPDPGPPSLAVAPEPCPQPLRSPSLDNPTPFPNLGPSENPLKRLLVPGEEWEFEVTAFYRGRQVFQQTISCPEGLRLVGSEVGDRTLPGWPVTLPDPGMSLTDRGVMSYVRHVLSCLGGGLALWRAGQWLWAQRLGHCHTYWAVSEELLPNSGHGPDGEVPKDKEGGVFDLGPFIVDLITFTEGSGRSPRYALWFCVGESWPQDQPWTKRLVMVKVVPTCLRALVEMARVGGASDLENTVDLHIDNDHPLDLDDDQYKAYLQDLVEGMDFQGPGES
Sequence | fitted relative affinity
TCACCTTTGAAAGTTGTTACTGTGCTA | 0.311 z-score
GACGGTATCCTCCTCCTGACGTGCTAG | 2.36 z-score
TGGACTGTGTGTTTGAGTCTGTGCTAG | -0.858 z-score
GTCGTCACTGCCATAATGCGGTGCTAG | -0.18 z-score
AGAGTAAATTAAGTTAGAACGTGCTAG | -0.197 z-score
TCAAAGCTTCCTCTCTGACTGTGCTAG | -0.359 z-score
TCATTTTTTTTTCCCTGACTGTGCTAG | 1.42 z-score
GTAAACCATCCAAATGTTATGTGCTAG | 0.519 z-score

Study 3
Variant: L91M
Target: ABI1, truncated, D143A, DHFR fusion (Arabidopsis thaliana)
Technique: DHFR PCA, deep sequencing
Medium: yeast
Notes: methotrexate growth selection, single substitutions
Reference: wild-type fitted maximum
Reading: higher = stronger binding
Starting sequence: PYL1, truncated, DHFR fusion (Arabidopsis thaliana); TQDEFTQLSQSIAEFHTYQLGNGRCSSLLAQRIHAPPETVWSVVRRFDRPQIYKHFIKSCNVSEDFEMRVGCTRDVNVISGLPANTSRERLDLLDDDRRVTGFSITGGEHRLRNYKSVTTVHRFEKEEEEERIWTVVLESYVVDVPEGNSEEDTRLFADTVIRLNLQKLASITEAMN; partner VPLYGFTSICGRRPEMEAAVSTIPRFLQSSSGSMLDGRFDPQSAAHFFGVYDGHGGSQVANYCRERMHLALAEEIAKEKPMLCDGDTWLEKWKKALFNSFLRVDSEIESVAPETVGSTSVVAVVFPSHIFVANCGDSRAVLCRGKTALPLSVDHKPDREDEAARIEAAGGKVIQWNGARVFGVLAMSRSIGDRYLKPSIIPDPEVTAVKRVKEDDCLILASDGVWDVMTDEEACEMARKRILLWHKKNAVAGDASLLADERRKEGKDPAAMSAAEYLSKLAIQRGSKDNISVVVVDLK
setting | relative binding score
with: (+)-ABA 4.8 µM | 43.6%
with: (+)-ABA 1.4 µM | 20.5%
with: (+)-ABA 710 µM | 103%
with: (+)-ABA 58 µM | 67.5%
with: (+)-ABA 0.11 µM | 4.52%
with: (+)-ABA 17 µM | 71.1%

Single results of other studies
SMILES | target | test | setting | how to read | endpoint | value
COc1ccc(S(=O)(=O)N(CCO)c2ccccc2CN(C)CC=Cc2ccc(Cl)cc2)cc1 | Serine/threonine-protein kinase Sgk2 (SGK2, Homo sapiens, UniProt Q9HBY8) | enzyme activity, inhibitor | 0.5 µM | reference: control | remaining activity | 99.8%

A few entries again (single results of other studies):
SMILES | target | test | setting | how to read | endpoint | value
COc1ccc(S(=O)(=O)N(CCO)c2ccccc2CN(C)CC=Cc2ccc(Cl)cc2)cc1 | Serine/threonine-protein kinase Sgk2 (SGK2, Homo sapiens, UniProt Q9HBY8) | enzyme activity, inhibitor | 0.5 µM | reference: control | remaining activity | 99.8%
